Assay results pooled from the literature.
Every numbered part comes from another study and shows a few of its results, in no order.
Chain of UniProt P47898 (whole entry, looked up): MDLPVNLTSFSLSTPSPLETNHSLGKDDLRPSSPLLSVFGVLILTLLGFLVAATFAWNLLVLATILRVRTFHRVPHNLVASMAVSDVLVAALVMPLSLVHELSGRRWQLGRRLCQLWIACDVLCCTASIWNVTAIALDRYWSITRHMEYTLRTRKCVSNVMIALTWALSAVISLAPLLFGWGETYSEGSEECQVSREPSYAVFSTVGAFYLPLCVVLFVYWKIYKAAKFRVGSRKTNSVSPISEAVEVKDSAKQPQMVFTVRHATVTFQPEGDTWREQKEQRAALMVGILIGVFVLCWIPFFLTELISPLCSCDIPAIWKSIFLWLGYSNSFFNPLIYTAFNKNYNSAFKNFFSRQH

Study 1 — organism: Sarcocystis neurona; effect on: parasite growth; concentration: 10 µM; time: 96 h; setting: first screen
Compound	inhibition [%]
CN(C)CCCC1(c2ccc(F)cc2)OCc2cc(C#N)ccc21 (centres unmarked)	2.4
CN(C)CCC=C1c2ccccc2COc2ccccc21	10.5
CC(C)NCC(O)COc1ccc(COCCOC(C)C)cc1 (centres unmarked)	-8
Cn1c(=O)c2[nH]cnc2n(C)c1=O	-4.4
CC(C)NCC(O)c1ccc(NS(C)(=O)=O)cc1 (centres unmarked)	-4
[H]/N=C(/NC)NCCC[C@H](N)C(=O)O	-2.4
CCCCNC(=O)NS(=O)(=O)c1ccc(C)cc1	-12.4
Cn1cc[nH]c1=S	-1.7
CC(C)[C@H]1CC[C@H](C(=O)N[C@H](Cc2ccccc2)C(=O)O)CC1	-18.6
Oc1ccc(/C=C/c2cc(O)cc(O)c2)cc1	-10.2
CC(Oc1c(Cl)cccc1Cl)C1=NCCN1 (centres unmarked)	7.7
COC(=O)C1=C(C)NC(C)=C(C(=O)OC)C1c1ccccc1[N+](=O)[O-]	6.7
O=C1C(CC[S+]([O-])c2ccccc2)C(=O)N(c2ccccc2)N1c1ccccc1 (centres unmarked)	-12.9

Study 2 — host: mouse; sample: microsomes or S9; concentration: 2 µM; time: 0.5 h
SMILES	remaining compound [%]
NCCN1CCOC(CC(=O)Nc2cc(Cl)cc(Cl)c2)C1=O (centres unmarked)	70.2
COc1ccc2c(c1)OC1c3ccc(O)cc3OCC21 (centres unmarked)	11.9
Cc1ccccc1-c1noc(-c2ccc[nH]c2=O)n1	35.2
Ic1ccc(-n2ccnc2)cc1	55.2
COc1ccccc1N1C(=O)c2cc3ccccc3n2CC1(C)C(=O)NC1CCCCCCC1 (centres unmarked)	1.85
COCCN(C)S(=O)(=O)c1cc2c(cc1Oc1ccc(Cl)cc1)Oc1ccc(C)cc1NC2=O	0.44
COc1cccc2c1Oc1ccsc1C=C2C#N	64.2
CC(C)n1ncc2c1NC(=O)CC21C(=O)N(C)c2cc(Cl)cc(Cl)c21 (centres unmarked)	20.4
CC(C)(C)OC(=O)N[C@@H](CC(=O)N1N=CCC1C(=O)OCc1ccccc1)Cc1cc(F)c(F)cc1F (some centres unmarked)	> 99
Oc1ccc(-c2nccn2Cc2csc(-c3ncccn3)n2)cc1	35.8
NC(=O)Cc1csc(NC(=O)CCNC2=NS(=O)(=O)c3ccccc32)n1	> 100
C[S+]([O-])c1nn(-c2ccc(Cl)c(Cl)c2)c(-c2ccc(Cl)c(Cl)c2)c1-n1ccnc1 (centres unmarked)	3.48
Cc1nc(C)c(S(=O)(=O)N(C)CC(C)(C)O)s1	36.2
O=C1c2ccsc2CCC1N1CCN(c2ncccn2)CC1 (centres unmarked)	0.245
N#Cc1cc(-n2ccnc2-c2cc3n(n2)CCNC3)ccc1N1CCOCC1	65.7
O=c1c2cc3c(=O)n(-c4cc(Cl)cc(Cl)c4)ccc3nc2ccn1CCCO	71.2
Cc1cc(S(=O)(=O)Nc2c[nH]c(=O)c(C)c2)sc1Cl	23.1
CCc1nn2c(c1-c1ccc(C)c(S(=O)(=O)N(C)c3ccc(C)c(C)c3)c1)NC(=O)CCC2=O	77.8
Cc1cc(N(C)Cc2ncc(Br)cn2)n2nc(C)nc2n1	> 100
Cc1noc(C)c1Cc1c(C(=O)N2CCC(Cc3nc(C4CCOCC4)no3)CC2)noc1C	3.39
COc1ccc(-c2nc(-c3ccc(OC)cc3)c(-c3ccc(OC)cc3)s2)cc1	93.1

Study 3 — effect on: enzyme activity; mode: inhibitor; concentration: 0.5 µM; reference: control
Target: MAP kinase-interacting serine/threonine-protein kinase 1 (MKNK1, Homo sapiens, UniProt Q9BUB5)
Chain of UniProt Q9BUB5 (whole entry, looked up): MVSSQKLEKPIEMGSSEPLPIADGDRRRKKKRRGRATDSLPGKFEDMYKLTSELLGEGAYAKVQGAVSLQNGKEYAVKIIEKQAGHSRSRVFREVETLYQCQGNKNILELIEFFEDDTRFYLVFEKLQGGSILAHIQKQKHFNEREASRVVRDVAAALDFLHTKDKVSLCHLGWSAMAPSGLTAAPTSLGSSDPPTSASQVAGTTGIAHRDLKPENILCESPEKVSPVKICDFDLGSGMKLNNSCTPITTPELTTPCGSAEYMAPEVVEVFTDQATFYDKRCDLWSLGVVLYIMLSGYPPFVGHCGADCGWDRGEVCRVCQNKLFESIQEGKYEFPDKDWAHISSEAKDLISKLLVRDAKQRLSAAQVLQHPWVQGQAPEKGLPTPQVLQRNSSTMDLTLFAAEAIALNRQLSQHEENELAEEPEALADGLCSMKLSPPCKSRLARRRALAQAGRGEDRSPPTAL
Compound	remaining activity [%]
CCCC(=O)Oc1ccc2[nH]c(C(=O)c3cc4ccccc4[nH]3)cc2c1	101
Fc1ccc(-c2nc3n(c2-c2ccncc2)CCS3)cc1	102
Nc1nccc(-c2c(-c3ccc(F)cc3)ncn2C2CCNCC2)n1	99
CSc1nc(-c2ccnc(N[C@@H](C)c3ccccc3)c2)c(-c2ccc(F)cc2)[nH]1 (racemic)	97.1
Cc1ccc(NC2=CC(=O)c3sc(C)nc3C2=O)cc1	117
CC(C)(C)n1nc(Cc2cccc3ccccc23)c2c(N)ncnc21	89.8
O=C1Cc2c([nH]c3ccc([N+](=O)[O-])cc23)-c2ccccc2N1	76.9
Nc1nc(Nc2ccc(S(N)(=O)=O)cc2)nn1C(=O)c1c(F)cccc1F	90.9
Cc1cncc2cccc(S(=O)(=O)N3CCCN(C(=O)CN)C[C@@H]3C)c12	90.5
Oc1ccc(Nc2nc(-c3ccc(Cl)cc3)cs2)cc1	98.9
CCc1[nH]c(-c2ccc(OC)cc2)nc1-c1ccncc1	115
Nc1ncnc2c1cnn2-c1ccccc1	81.4
CC(=O)c1ccc(N2CCOCC2)cc1O	102
O=S(=O)(NCCNC/C=C/c1ccc(Br)cc1)c1cccc2cnccc12	93.4
CC[n+]1c(/C=C/N(C)c2ccccc2)n(-c2ccccc2)c2ccc(-c3nc4ccccc4s3)cc21	102
N#CC(=C(N)Sc1ccc(N)cc1)c1ccccc1C(F)(F)F	103
O=C1NC(=O)C(c2c[nH]c3ccccc23)=C1c1c[nH]c2ccccc12	115
NC(=O)c1ccc(N(C(N)=O)c2c(F)cccc2F)nc1-c1ccc(F)cc1F	91.4
CC#CC(=O)Nc1cc2c(Nc3ccc(F)c(Cl)c3)ncnc2cn1	89.5
COc1ccc(S(=O)(=O)N(CCO)c2ccccc2CN(C)CC=Cc2ccc(Cl)cc2)cc1	103
Cc1cc(Nc2nc(-c3ccccc3)nc3ccccc23)n[nH]1	93.5

Further values, each from its own experiment
Compound	target	assay	setting	measurement	value
Cc1cc(Nc2nccc(C)n2)cc(-c2cnc([C@@]3(O)CC[C@H](C(=O)O)C(C)(C)C3)s2)c1	5-hydroxytryptamine receptor 5A (HTR5A, Homo sapiens, UniProt P47898)	ligand displacement	10 µM	inhibition	10%

Some of these lines once more (study 1):
Compound	inhibition [%]
Cn1c(=O)c2[nH]cnc2n(C)c1=O	-4.4
CC(Oc1c(Cl)cccc1Cl)C1=NCCN1 (centres unmarked)	7.7
CC(C)[C@H]1CC[C@H](C(=O)N[C@H](Cc2ccccc2)C(=O)O)CC1	-18.6
O=C1C(CC[S+]([O-])c2ccccc2)C(=O)N(c2ccccc2)N1c1ccccc1 (centres unmarked)	-12.9
[H]/N=C(/NC)NCCC[C@H](N)C(=O)O	-2.4
CC(C)NCC(O)c1ccc(NS(C)(=O)=O)cc1 (centres unmarked)	-4
CCCCNC(=O)NS(=O)(=O)c1ccc(C)cc1	-12.4
